Assay results from different studies.
Protocols differ between the studies behind these lines.
Target: 5-hydroxytryptamine receptor 6 (HTR6, Homo sapiens, UniProt P50406)
Sequence of UniProt P50406 (whole entry, looked up): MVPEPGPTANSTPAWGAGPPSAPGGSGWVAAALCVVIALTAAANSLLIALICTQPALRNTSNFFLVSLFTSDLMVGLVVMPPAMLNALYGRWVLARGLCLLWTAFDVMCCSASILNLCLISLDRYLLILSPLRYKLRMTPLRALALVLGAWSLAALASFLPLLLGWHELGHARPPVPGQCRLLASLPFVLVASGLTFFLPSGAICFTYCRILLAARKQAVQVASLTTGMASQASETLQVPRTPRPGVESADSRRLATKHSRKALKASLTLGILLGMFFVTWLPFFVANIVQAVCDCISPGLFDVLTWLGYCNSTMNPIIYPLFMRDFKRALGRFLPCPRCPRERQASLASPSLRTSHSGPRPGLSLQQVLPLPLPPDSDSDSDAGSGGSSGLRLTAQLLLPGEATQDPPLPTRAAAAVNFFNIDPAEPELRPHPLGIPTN

Compound	assay	test system	conditions	inhibition [%]
c1ccc(OC[C@H]2CN(CCN3CCc4ccccc43)CCO2)nc1	radioligand binding		concentration not given, with: [3H]LSD	27.2
CO[C@@H](C)c1c(NC(=O)Nc2cnc(-n3nccn3)c(C(F)(F)F)c2)cnc2sc(C)nc12	ligand displacement, radioligand		10 µM	-7.8
CC1Cc2ccccc2N1C(=O)CN1CCN(Cc2ccccc2)CC1 (stereo not drawn)	radioligand binding		concentration not given, with: [3H]LSD	23.4
COc1ccc(C(=O)Nc2c(-c3cccs3)nc3ccccn23)cc1	ligand displacement, radioligand		10 µM	< 50
CNC(=O)C[C@H](Cc1ccc(C#N)cc1)NC(=O)c1cc(-c2ccc(CN[C@H](C)c3ccc(C)cc3)o2)ccc1Cl	agonist response, antagonist	human cells	10 µM, 5-HT6 antagonist	11
CCC(=O)N(C)c1ccc(Cl)c(Cl)c1	ligand displacement, radioligand		10 µM	< 10
O=C1c2sc(-c3ccc(N4CCC(CO)CC4)nc3F)nc2CCN1c1cccnc1	ligand displacement, radioligand		1 µM	4
Cc1ccnc(OC[C@H]2CN(CCN3CCc4ccccc43)CCO2)c1	radioligand binding		concentration not given, with: [3H]LSD	12.3
CC(C)Cn1c(SCC(=O)N2CCc3ccccc3C2)nc2cc(Cl)ccc2c1=O	ligand displacement, radioligand		10 µM	2

Repeated from above:
Compound	assay	test system	conditions	inhibition [%]
CC1Cc2ccccc2N1C(=O)CN1CCN(Cc2ccccc2)CC1 (stereo not drawn)	radioligand binding		concentration not given, with: [3H]LSD	23.4
